Results gathered from unrelated publications.
Several values in a cell are separate wells, animals, samples, runs or records.
Chain of UniProt Q05655 (whole entry, looked up): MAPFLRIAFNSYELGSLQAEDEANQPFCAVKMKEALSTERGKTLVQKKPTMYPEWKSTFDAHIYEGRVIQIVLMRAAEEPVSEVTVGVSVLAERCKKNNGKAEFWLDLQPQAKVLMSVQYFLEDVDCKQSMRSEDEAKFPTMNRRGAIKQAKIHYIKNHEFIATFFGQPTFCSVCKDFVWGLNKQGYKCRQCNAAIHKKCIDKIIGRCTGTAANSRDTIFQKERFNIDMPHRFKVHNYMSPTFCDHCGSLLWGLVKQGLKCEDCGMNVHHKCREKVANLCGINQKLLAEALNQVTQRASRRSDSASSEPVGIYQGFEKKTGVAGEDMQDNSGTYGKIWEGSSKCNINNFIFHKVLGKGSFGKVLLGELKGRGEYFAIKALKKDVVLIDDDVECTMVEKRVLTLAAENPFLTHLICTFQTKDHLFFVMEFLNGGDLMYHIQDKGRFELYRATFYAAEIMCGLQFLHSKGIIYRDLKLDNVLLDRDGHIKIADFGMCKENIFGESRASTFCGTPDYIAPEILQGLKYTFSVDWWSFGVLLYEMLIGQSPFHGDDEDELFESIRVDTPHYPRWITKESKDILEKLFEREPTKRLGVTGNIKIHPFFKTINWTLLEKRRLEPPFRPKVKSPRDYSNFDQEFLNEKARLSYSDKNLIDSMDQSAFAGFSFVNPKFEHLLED

CN(C)c1ccc(C(Nc2nc3c(-c4ccc([N+](=O)[O-])cc4)nn(-c4ccccc4)c3s2)P(=O)(Oc2ccccc2)Oc2ccccc2)cc1 (centres unmarked)  viability (BNL mouse liver cells; SRB; 0.01 µM, 10% fetal bovine serum): 99.8%
CC(C)C[C@@H](NC(=O)[C@H](N)CCCCN)C(=O)N[C@H](CC(C)C)C(=O)N[C@H](Cc1ccccc1)C(N)=O  viability (NGF-differentiated PC-12 neurons; 40 µM, 24 h; reference: untreated): 98.6%
COc1cc2c(Oc3ccc4[nH]c(C)cc4c3F)ccnc2cc1OCC1(N)CC1  gingival bleeding incidence (paediatric refractory sarcoma patients; 10 mg): 25%
C[C@H]1CN(c2n[nH]c3nc(N[C@H]4CC[C@H](NS(=O)(=O)CCC(F)(F)F)CC4)ncc23)CCO1  relative abundance (PRKCD (Homo sapiens, UniProt Q05655); inhibitor, Kinobeads competition profiling; 0.032 µM; reference: vehicle): 1.04
Cn1cc(CN2CCCC(COc3ccccc3C(=O)N3CCCCC3)C2)c2ccccc21 (centres unmarked)  maximum response (Vero-E6; CellTiter-Glo ATP; 72 h, first round 5-point; reference: DMSO 0%, hyamine -100%, more negative, more toxic): -5.85%
O=[N+]([O-])c1ccc(-c2nn(-c3ccccc3)c3sc(NC(c4ccccc4O)P(=O)(Oc4ccccc4)Oc4ccccc4)nc23)cc1 (centres unmarked)  viability (BNL mouse liver cells; SRB; 100 µM, 10% fetal bovine serum): 94.4%
COc1ccc(Nc2nn3c(-c4ccccc4)ccnc3c2C(=O)Nc2ccccc2)cc1  viability (WI-38; MTT; serum-free medium; 62.50 µg/mL, 48 h): 76.7%
CO[C@H]1C[C@@H]2CC[C@@H](C)[C@@](O)(O2)C(=O)C(=O)N2CCCC[C@H]2C(=O)O[C@H]([C@H](C)C[C@@H]2CC[C@@H](OC(=O)NCCOCCOCCOCCOCCOCCOCCOCCOCCC(=O)N3CCc4cc(Cn5nc(-c6ccc7oc(N)nc7c6)c6c(N)ncnc65)ccc4C3)[C@H](OC)C2)C[C@@H](O)[C@H](C)/C=C(\C)[C@@H](O)[C@@H](OC)C(=O)[C@H](C)C[C@H](C)/C=C/C=C/C=C/1C  incidence of nausea TEAE (patients with advanced solid tumours; intravenous, 12 mg weekly, grade ≥3): 8.3%
CC(C)C[C@@H](NC(=O)[C@H](N)CCCCN)C(=O)N1CCC[C@@H]1C(=O)N[C@H](Cc1ccccc1)C(=O)N[C@H](Cc1ccccc1)C(=O)N[C@H](C)C(=O)N[C@H](CCC(=O)O)C(N)=O  viability (NGF-differentiated PC-12 neurons; 10 µM, 24 h; reference: untreated): 98.1%
CC(Nc1nc(N2CCN(CCN)CC2)nc2ccccc12)c1ccccc1 (centres unmarked)  maximum response (Vero-E6; CellTiter-Glo ATP; 72 h, second round 5-point; reference: DMSO 0%, hyamine -100%, more negative, more toxic): -12.4%
Cc1cccc2[nH]cc(CNCC3(N4CCCC4)COC3)c12  viability (HEK; 30 µM, 48 h, 10% FBS; reference: DMSO): 23.4%
COc1ccc(Nc2nn3c(-c4ccccc4)ccnc3c2C(=O)Nc2ccc(Cl)cc2)cc1  viability (WI-38; MTT; serum-free medium; 125.00 µg/mL, 48 h): 81.8%
CC(C)C[C@@H](N)C(=O)N[C@H](Cc1ccccc1)C(=O)N[C@H](Cc1ccccc1)C(=O)N[C@H](C)C(=O)N[C@H](CCC(=O)O)C(N)=O  viability (NGF-differentiated PC-12 neurons; 80 µM, 24 h; reference: untreated): 56.8%
Cn1cc2cc(C(F)(F)c3nnc4ccc(-c5cnn(C6CC6)c5)nn34)c(F)cc2n1  viability (MKN-45; CCK-8; 0.2 µM, 72 h; reference: untreated): 5.47% and 5.55% and 6.33%
CC(C)C[C@@H](NC(=O)[C@H](N)CCCCN)C(=O)N1CCC[C@@H]1C(=O)N[C@H](Cc1ccccc1)C(=O)N[C@H](Cc1ccccc1)C(N)=O  viability (NGF-differentiated PC-12 neurons; 10 µM, 24 h; reference: untreated): 100%
Cc1cccc2c(CNCC3(N4CCCC4)COC3)c[nH]c12  viability (HEK; 30 µM, 48 h, 10% FBS; reference: DMSO): 0.437%
CC(C)C[C@H](NC(=O)[C@H](C)NC(=O)[C@@H](NC(=O)[C@H](CCCNC(=N)N)NC(=O)[C@H](CC(C)C)NC(=O)[C@H](Cc1c[nH]c2ccccc12)NC(=O)[C@@H]1CCCN1C(=O)[C@@H](N)CCCCN)C(C)C)C(=O)N[C@@H](CS)C(=O)N1CCC[C@H]1C(=O)NCC(=O)O  viability (A549; WST-1; 4 µM, 24 h): 90.3% and 91.1% and 85.6%
